Published values gathered from unrelated publications.
Protocols differ between the studies behind these lines. ± gives the spread as reported.
Target: D(3) dopamine receptor (DRD3, Homo sapiens, UniProt P35462)
Sequence of UniProt P35462 (whole entry, looked up): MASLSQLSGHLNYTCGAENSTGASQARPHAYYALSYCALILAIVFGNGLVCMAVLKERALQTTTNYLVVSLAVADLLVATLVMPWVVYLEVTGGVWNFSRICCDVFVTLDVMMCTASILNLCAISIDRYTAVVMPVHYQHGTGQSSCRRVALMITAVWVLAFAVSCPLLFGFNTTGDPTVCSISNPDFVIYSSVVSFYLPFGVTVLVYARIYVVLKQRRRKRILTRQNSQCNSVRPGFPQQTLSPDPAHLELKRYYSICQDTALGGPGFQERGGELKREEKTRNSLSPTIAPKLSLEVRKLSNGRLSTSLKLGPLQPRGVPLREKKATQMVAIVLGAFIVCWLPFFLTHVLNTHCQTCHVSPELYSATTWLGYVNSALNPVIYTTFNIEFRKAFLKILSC

| SMILES | assay | system | setting | scale | quantity | result |
| --- | --- | --- | --- | --- | --- | --- |
| COc1ccc(-c2csc3ncnc(NCCCN4CCN(c5ccccc5)CC4)c23)cc1 | enzyme activity, inhibitor | – | 10 µM | – | inhibition | 91.1% |
| Brc1ccccc1-c1nnc(CSc2nnnn2-c2ccccc2)o1 | ligand displacement, radioligand | – | 10 µM | – | inhibition | -11% |
| O=C1c2sc(-c3ccc(N4CCC(F)C4)nc3F)nc2CCN1c1cccnc1 (centres unmarked) | ligand displacement, radioligand | – | 1 µM | – | inhibition | -2% |
| COc1cc(CNCC(O)c2ccccc2)cc(Cl)c1OCC(N)=O (centres unmarked) | enzyme activity, inhibitor | – | 10 µM | – | inhibition | -27.8% |
| Cc1cc(O)c2c(c1)C(=O)c1cc(O)c(S(=O)(=O)O)c(O)c1C2=O | cAMP level, agonist, HTRF | transfected CHO cells | 50 µM | baseline: control agonist | agonist effect | 6.65% |
| CC1Cc2ccccc2N1C(=O)CN1CCN(Cc2ccccc2)CC1 (centres unmarked) | radioligand binding | – | concentration not given, with: [3H]N-methylspiperone | – | inhibition | 59.7% |
| Cc1ccc(NS(=O)(=O)c2c(C)[nH]c(C)c2C(=O)N2CCCC2)cc1F | β-arrestin recruitment, agonist, PathHunter | – | – | baseline: dopamine | Imax | 99 ± 2.4% |
| O=C1c2cc(O)cc(O)c2C(=O)c2c(O)cc(CO)cc21 | cAMP level, agonist, HTRF | transfected CHO cells | 50 µM | baseline: control agonist | agonist effect | 8.4% |
| Cc1ccc(NS(=O)(=O)c2c(C)[nH]c(C)c2C(=O)N2CCCCC2)cc1Cl | β-arrestin recruitment, agonist, PathHunter | – | – | baseline: dopamine | Imax | 94 ± 3.7% |
| O=C(CN1CCO[C@@H](COc2cccc(Cl)c2)C1)N1CCc2ccccc21 | radioligand binding | – | concentration not given, with: [3H]N-methylspiperone | – | inhibition | 27.3% |
| Cn1c(=O)c(SCC(=O)NCCN2CCC(Cc3ccccc3)CC2)nc2ccccc21 | enzyme activity, inhibitor | – | 10 µM | – | inhibition | 95.5% |

Repeated from above:
| SMILES | assay | system | setting | scale | quantity | result |
| --- | --- | --- | --- | --- | --- | --- |
| Cc1ccc(NS(=O)(=O)c2c(C)[nH]c(C)c2C(=O)N2CCCCC2)cc1Cl | β-arrestin recruitment, agonist, PathHunter | – | – | baseline: dopamine | Imax | 94 ± 3.7% |
| O=C(CN1CCO[C@@H](COc2cccc(Cl)c2)C1)N1CCc2ccccc21 | radioligand binding | – | concentration not given, with: [3H]N-methylspiperone | – | inhibition | 27.3% |
